Measured values collected from several papers.
Each line is one published result; not all experiments were run side by side. Values joined by “and” are separate records of one study, mostly repeats; a detail may differ. ± gives the spread as reported.
B1: IgG L:G68W; V domains shown; VH QVQLVQSGAEVKKPGASVKVSCKASGYTFTNYGLSWVRQAPGQGLEWMGWISANNGDTNYGQEFQGRVTMTTDTSTSTAYMELRSLRSDDTAVYYCARDSSSSWARWFFDLWGRGTLVTVSS; VL SYVLTQPPSVSVAPGKTARITCGGNIIGSKLVHWYQQKPGQAPVLVIYDDGDRPSGIPERFSGSNSWNTATLTISRVEAGDEADYYCQVWDTGSDPVVFGGGTKLTVL
B2: C1S 438-688 S632A (Homo sapiens, UniProt P09871); chain IIGGSDADIKNFPWQVFFDNPWAGGALINEYWVLTAAHVVEGNREPTMYVGSTSVQTSRLAKSKMLTPEHVFIHPGWKLLEVPEGRTNFDNDIALVRLKDPVKMGPTVSPICLPGTSSDYNLMDGDLGLISGWGRTEKRDRAVRLKAARLPVAPLRKCKEVKVEKPTADAEAYVFTPNMICAGGEKGMDSCKGDAGGAFAVQDPNDKTKFYAAGLVSWGPQCGTYGLYTRVKNYVDWIMKTMQENSTPRED
B3: TGM4 (Heligmosomoides polygyrus); chain GCMPFSDETASYKYLTERSRNDETPAQNDSSGAYPDHTHVKRFCKGLHGEEKTGRYVGICLGSEWVYYQGVQECQDRRCSPLPTNDTVTYEYLKATVNAGINFNITVHPDASGKYPELTYIKRICKNFPADSKVQGHIIGMCYNAEWRFSSTPTCPPSGCPPLPDDGIVFYEYYGYAGNRHTVGRAVSKDSSGNYPPQTHARRRCRALSQKADPGEFVGICYKSGTTGESHWDYYSHIRKCPDPRCKPLETNVSVHYEYFTMTNETGRKEGTPAEVDKGGKYPQHTCVRKFCDKSPYTCSVKGPIFGECLDGQWNFTALDECLNARGCNSDDLFDKLGFEGVMVREEEGSDSYKDDFVRFYATGSKVNAECKGKTVQLECSDGEWHDPGTKTVHRCTKEGIRAL
B4: BRAF kinase 448-723 K723G/P722S/S720E/L716E/S713E/Q709R/L706S/A688R/Y673S/R662E/K630S/V600E/L588N/Q562R (Homo sapiens, UniProt P15056); sequence looked up; chain DDWEIPDGQITVGQRIGSGSFGTVYKGKWHGDVAVKMLNVTAPTPQQLQAFKNEVGVLRKTRHVNILLFMGYSTKPQLAIVTQWCEGSSLYHHLHASETKFEMKKLIDIARQTARGMDYLHAKSIIHRDLKSNNIFLHEDNTVKIGDFGLATEKSRWSGSHQFEQLSGSILWMAPEVIRMQDSNPYSFQSDVYAFGIVLYELMTGQLPYSNINNEDQIIFMVGRGSLSPDLSKVRSNCPKRMKRLMAECLKKKRDERPSFPRILAEIEELARELSG
B5: EFR3A 721-791 (Homo sapiens, UniProt Q14156); chain SNTEEITFEALKKAIDTSGMEEQEKEKRRLVIEKFQKAPFEEIAAQCESKANLLHDRLAQILELTIRPPPS
B6: TEPSIN M474S/E475S/V477S (Homo sapiens, UniProt Q96N21); chain MAAAPPLRDRLSFLHRLPILLKGTSDDDVPCPGYLFEEIAKISHESPGSSQCLLEYLLSRLHSSSGHGKLKVLKILLYLCSHGSSFFLLILKRNSAFIQEAAAFAGPPDPLHGNSLYQKVRAAAQDLGSTLFSDTVLPLAPSQPLGTPPATGMGSQARPHSTLQGFGYSKEHGRTAVRHQPGQAGGGWDELDSGPSSQNSSQNSDLSRVSDSGSHSGSDSHSGASREPGDLAERVEVVALSDCQQELSLVRTVTRGPRAFLSREEAQHFIKACGLLNCEAVLQLLTCHLRGTSECTQLRALCAIASLGSSDLLPQEHILLRTRPWLQELSMGSPGPVTNKATKILRHFEASCGQLSPARGTSAEPGPTAALPGPSDLLTDAVPLPGSQVFLQPLSSTPVSSRSPAPSSGMPSSPVPTPPPDASPIPAPGDPSEAEARLAESRRWRPERIPGGTDSPKRGPSSCAWSRDSLFAGSSLSACPRLVGAGAAAGESCPDAPRAPQTSSQRTAAKEPPGSEPSAFAFLNA
UniProt P05155, sequence (whole entry, looked up): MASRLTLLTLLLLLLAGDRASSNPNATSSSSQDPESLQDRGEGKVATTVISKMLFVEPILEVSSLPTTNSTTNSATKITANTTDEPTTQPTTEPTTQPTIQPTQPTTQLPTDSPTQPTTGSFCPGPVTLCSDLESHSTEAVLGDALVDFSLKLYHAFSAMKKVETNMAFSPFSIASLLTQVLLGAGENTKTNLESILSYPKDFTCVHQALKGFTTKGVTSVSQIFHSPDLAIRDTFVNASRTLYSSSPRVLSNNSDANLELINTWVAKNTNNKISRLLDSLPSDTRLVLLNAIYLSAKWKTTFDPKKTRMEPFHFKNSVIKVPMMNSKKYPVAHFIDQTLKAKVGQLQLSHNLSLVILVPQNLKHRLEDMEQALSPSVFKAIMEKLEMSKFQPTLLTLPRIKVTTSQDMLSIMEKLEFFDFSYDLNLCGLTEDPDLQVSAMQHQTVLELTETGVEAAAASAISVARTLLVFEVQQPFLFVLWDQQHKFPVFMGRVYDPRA
UniProt P97287, sequence (whole entry, looked up): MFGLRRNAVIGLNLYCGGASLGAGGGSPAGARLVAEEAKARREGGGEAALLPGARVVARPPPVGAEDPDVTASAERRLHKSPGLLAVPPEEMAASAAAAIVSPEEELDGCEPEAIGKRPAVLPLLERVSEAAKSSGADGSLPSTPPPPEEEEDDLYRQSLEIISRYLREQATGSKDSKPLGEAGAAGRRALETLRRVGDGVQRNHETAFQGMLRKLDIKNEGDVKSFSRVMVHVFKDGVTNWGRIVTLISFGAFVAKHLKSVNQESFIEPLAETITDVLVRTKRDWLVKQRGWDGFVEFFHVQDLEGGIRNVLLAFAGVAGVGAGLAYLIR

Substance | tested on | assay | test system | conditions | scale | measurement | value
EEEWAREIGAYLRRAADDLNAQYERRR (PUMA residues 130-156 M144A/Q140Y; N-acetyl, C-terminal amide) | Mcl1 152-308 (Mus musculus, UniProt P97287) | SPR | peptide |  |  | koff | 0.0003 ± 5e-05 s⁻¹
B1 (IgG L:G68W) | IL13 fragment (Homo sapiens) | SPR | antibody |  |  | koff | 0.00038 s⁻¹
GSGAGKETRV | human MAGI1-3/6 PDZ construct (MBP fusion) | automated holdup | peptide, purified PDZ protein | concentration not given, unit not given | baseline: biotin control resin, higher = stronger binding | binding intensity | 0.412
B2 (C1S 438-688 S632A) | SERPING1 111-500 (Homo sapiens, UniProt P05155) | SPR |  | with: Ca2+ |  | koff | 0.0874 s⁻¹
MBL-A mature, hydroxylysine, hydroxyproline in collagen (Rattus norvegicus, UniProt P19999) | C1r/C1s full-length tetramer (Homo sapiens) | SPR |  | with: CaCl2 140 mM |  | koff | 0.00153 s⁻¹
CALLLSAPRR (GOT2 (Gallus gallus); fluorescein label) | HSPA9 mature A475W (Homo sapiens, UniProt P38646) | FP | peptide |  |  | koff | 0.00133 s⁻¹
B3 (TGM4) | TGFBR1 extracellular domain (Homo sapiens) | SPR |  |  |  | koff | 0.00073 s⁻¹
B4 | MAP2K1 (Homo sapiens, UniProt Q02750) | BLI |  |  |  | koff | 0.00518 s⁻¹
B5 (EFR3A 721-791) | PI4KA/TTC7A/FAM126A TTC7A/FAM126A | BLI |  |  |  | koff | 0.000273 s⁻¹
QSARYRDTEL | human SCRIB PDZ3-4 tandem (MBP fusion) | automated holdup | peptide, crude extract | concentration not given, corrected by standard peak, unit not given | baseline: biotin control resin, higher = stronger binding | binding intensity | 0.684
B6 (TEPSIN M474S/E475S/V477S) | MAP1LC3B fragment (Homo sapiens) | BLI |  |  |  | koff | 0.1 s⁻¹ and 0.092 s⁻¹ and 0.097 s⁻¹ and 0.099 s⁻¹

For quick reference, copied from above:
Substance | tested on | assay | test system | conditions | scale | measurement | value
MBL-A mature, hydroxylysine, hydroxyproline in collagen (Rattus norvegicus, UniProt P19999) | C1r/C1s full-length tetramer (Homo sapiens) | SPR |  | with: CaCl2 140 mM |  | koff | 0.00153 s⁻¹
